Measured values gathered from unrelated publications.
Compare with care: the assays were run in different laboratories. Values joined by “and” are separate records of one study, mostly repeats; a detail may differ. ± gives the spread as reported.
UCHL1: Ubiquitin carboxyl-terminal hydrolase isozyme L1 (UCHL1, Homo sapiens, UniProt P09936)
UniProt P09936, sequence (whole entry, looked up): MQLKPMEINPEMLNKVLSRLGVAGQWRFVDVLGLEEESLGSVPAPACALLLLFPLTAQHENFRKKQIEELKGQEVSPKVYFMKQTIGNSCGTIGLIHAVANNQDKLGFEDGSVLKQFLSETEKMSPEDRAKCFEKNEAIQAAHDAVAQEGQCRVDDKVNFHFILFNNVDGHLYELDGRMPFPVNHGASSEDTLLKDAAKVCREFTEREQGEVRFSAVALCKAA

Structure (SMILES) | tested on | assay | test system | setting | scale | quantity | result
N=C(N)c1ccc(OCCC(CCOc2ccc(C(=N)N)cc2)c2ccccc2)cc1 (stereo not shown) | Pseudomonas aeruginosa | checkerboard | ATCC 27853 | unit not given, with: rifampicin | lower = stronger synergy | FICI | ≤ 0.125
COC(=O)[C@H](Cc1c[nH]c2ccccc12)NCc1cc2ccccc2nc1SC | Pseudomonas aeruginosa | – | – | 2 µg/mL, with: pentamidine 100 µM | relative to: control | growth | 73.9%
CC(C)c1ccc(/C=C2\N/C(=N/c3ccccc3)N(N)C2=O)cc1 | Pseudomonas aeruginosa | – | ATCC 27853 | concentration not given | – | inhibition zone diameter | 13 ± 0.67 mm
Cc1cccc(C(=O)C#Cc2ccc(F)c(F)c2)c1 | Pseudomonas aeruginosa | static biofilm | PA14 | 10 µM, 24 h, static | relative to: DMSO | biofilm formation | 64%
N=C(N)c1ccc(OCc2ccc(-c3ccccc3)cc2COc2ccc(C(=N)N)cc2)cc1 | Pseudomonas aeruginosa | – | ATCC 27853 | concentration not given, with: rifampicin | – | MIC in combination | 6.25 µg/mL
CC[C@H](C)[C@H](NC(=O)CNC(=O)[C@@H](NC(=O)[C@H](Cc1ccccc1)NC(=O)[C@H](Cc1ccc(O)cc1)NC(=O)[C@@H]1CCC(=O)NCC(=O)NCC(=O)N[C@@H](C)C(=O)NCC(=O)N[C@@H](Cc2c[nH]cn2)C(=O)N[C@@H](C(C)C)C(=O)N2CCC[C@H]2C(=O)N1)C(C)C)C(=O)NCC(=O)N[C@H](C(=O)N1CCC[C@H]1C(=O)N[C@H](C(=O)N[C@@H](CO)C(=O)N[C@@H](Cc1ccccc1)C(=O)N[C@@H](Cc1ccc(O)cc1)C(=O)NCC(=O)O)[C@@H](C)CC)[C@@H](C)O | Pseudomonas aeruginosa | – | – | concentration not given | – | growth inhibition | no effect
COC(=O)[C@H](Cc1ccccc1)NC(=O)C1COC2(CCCCC2)OC1 | Pseudomonas aeruginosa | crystal violet staining | – | 500 µg/mL, 24 h | relative to: untreated | residual biofilm | 39 ± 11%
O=c1c2cc(Cl)ccc2[nH]c(=S)n1Cc1cccnc1 | Pseudomonas aeruginosa | – | – | – | – | MIC90 | > 100 µM
C[C@@H](O)[C@H]1C(=O)N2C(C(=O)O)=C(S[C@@H]3CN[C@H](C(=O)N(C)C)C3)[C@H](C)[C@H]12 | Pseudomonas aeruginosa | – | CIP 27853, mouse lung infection model, lung | 10 mg/kg, 24 h | – | lung bacterial burden | 4.54 log CFU and 5.15 log CFU and 4.07 log CFU and 4.16 log CFU and 4.29 log CFU and 3.7 log CFU and 3.71 log CFU and 4.17 log CFU
CC(NC(=O)C(C#N)=Cc1ccc(-c2ccccc2)cc1)c1ccccc1 (stereo not shown) | UCHL1 | covalent, intact protein LC-MS | – | 12.5 µM | – | labelling | 27.2%
Cn1nc(-c2ccccc2)cc1C1COC2(CCCCC2)O1 (stereo not shown) | Pseudomonas aeruginosa | crystal violet staining | – | 500 µg/mL, 24 h | relative to: untreated | residual biofilm | 61 ± 9%
COc1cc(C#CC(=O)c2ccc(C(F)(F)F)cc2)ccc1O | Pseudomonas aeruginosa | static biofilm | PA14 | 10 µM, 24 h | relative to: DMSO | biofilm formation | 66%
N#CC(=Cc1ccc(OC(F)F)c(Cl)c1)C(N)=O | UCHL1 | covalent, intact protein LC-MS | – | 12.5 µM | – | labelling | 33%
N=C(N)c1ccc(OCc2ccccc2COc2ccc(C(=N)N)cc2)cc1 | Pseudomonas aeruginosa | – | ATCC 27853 | concentration not given, with: rifampicin | – | MIC in combination | 100 µg/mL
N=C(N)c1ccc(OCCCCCOc2ccc(C(=N)N)cc2)cc1 | Pseudomonas aeruginosa | – | – | 50 µM | relative to: untreated | growth | 99%
CCN1CCN(C(=O)N[C@@H](C(=O)N[C@@H]2C(=O)N3[C@@H]2SC(C)(C)[C@@H]3C(=O)O)c2ccccc2)C(=O)C1=O | Pseudomonas aeruginosa | – | R16-49 PER-producing isolate | – | – | MIC | > 128 µg/mL
CNC(C)C1CCC(N)C(OC2C(N)CC(N)C(OC3OCC(C)(O)C(NC)C3O)C2O)O1 (stereo not shown) | Pseudomonas aeruginosa | broth microdilution, absorbance | clinical isolate P.A301, RPMI with 1640% FBS | 24 h, 37 °C | – | MIC | 32 µM
CC[C@H](C)CCCCC(=O)N[C@@H](CCN)C(=O)N[C@H](C(=O)N[C@@H](CCN)C(=O)N[C@H]1CCNC(=O)[C@H]([C@@H](C)O)NC(=O)[C@H](CCN)NC(=O)[C@H](CCN)NC(=O)[C@H](CC(C)C)NC(=O)[C@@H](CC(C)C)NC(=O)[C@H](CCN)NC1=O)[C@@H](C)O | Pseudomonas aeruginosa | broth microdilution | ATCC 13883, cation-adjusted Mueller-Hinton broth | – | – | MIC | 0.428 µM
COc1ccccc1C(=O)C#Cc1ccc(F)c(F)c1 | Pseudomonas aeruginosa | biofilm formation | PA14 | static | – | IC50 | 33 µM
COC(=O)[C@H](C)NC(=O)[C@H](Cc1ccccc1)NC(=O)C1OCC2(CCCCC2)CO1 | Pseudomonas aeruginosa | crystal violet staining | – | 500 µg/mL, 24 h | relative to: untreated | residual biofilm | 15 ± 4%

Structure (SMILES) | tested on | assay | test system | setting | scale | quantity | result
COC(=O)[C@H](Cc1ccc(O)cc1)NCc1cc2ccccc2nc1SC | Pseudomonas aeruginosa | – | – | 2 µg/mL, with: pentamidine 100 µM | relative to: control | growth | 62.4%
C[C@@H](O)[C@H]1C(=O)N2C(C(=O)O)=C(SCCN=CN)C[C@H]12 | Pseudomonas aeruginosa | checkerboard | carbapenem-resistant | concentration not given, with: anionic gold nanoparticle 8 µg/mL | relative to: MIC alone over combination | MIC fold reduction | 1 fold
N=C(N)c1ccc(OCc2cc(COc3ccc(C(=N)N)cc3)cc(-c3ccccc3)c2)cc1 | Pseudomonas aeruginosa | checkerboard | ATCC 27853 | unit not given, with: rifampicin | lower = stronger synergy | FICI | 0.5
NCCCC[C@H](NC(=O)[C@H](Cc1ccccc1)NC(=O)[C@H](CCC(N)=O)NC(=O)[C@H](Cc1ccccc1)NC(=O)[C@H](CCC(N)=O)NC(=O)[C@@H](N)Cc1ccccc1)C(N)=O | Pseudomonas aeruginosa | – | – | – | – | MBC | 2080 µM
O=C(NCCc1ccccc1)C1COC2(CCCCC2)O1 (stereo not shown) | Pseudomonas aeruginosa | crystal violet staining | – | 500 µg/mL, 24 h | relative to: untreated | residual biofilm | 18 ± 5%
C[C@@H](O)[C@H]1C(=O)N2C(C(=O)O)=C(S[C@@H]3CN[C@H](C(=O)Nc4cccc(C(=O)O)c4)C3)[C@H](C)[C@H]12 | Pseudomonas aeruginosa | checkerboard | carbapenem-resistant | concentration not given, with: anionic gold nanoparticle 8 µg/mL | relative to: MIC alone over combination | MIC fold reduction | 32 fold
CC1(C)S[C@@H]2[C@H](NC(=O)[C@H](N)c3ccccc3)C(=O)N2[C@H]1C(=O)O | Pseudomonas aeruginosa | – | ATCC 27853 | 18 h, 37 °C, dark | – | MIC | > 128 µM
C[C@H]1COc2c(N3CCN(C)CC3)c(F)cc3c(=O)c(C(=O)O)cn1c23 | Pseudomonas aeruginosa | – | ATCC 47085 | 20 h | – | MBC | 7.81 µg/mL
CC(C)(O/N=C(\C(=O)N[C@@H]1C(=O)N2C(C(=O)[O-])=C(C[n+]3ccccc3)CS[C@H]12)c1csc(N)n1)C(=O)O | Pseudomonas aeruginosa | – | R13-94 PER-producing isolate | – | – | MIC | > 128 µg/mL
CC1(C)OCC(C(=O)NCCc2ccccc2)O1 (stereo not shown) | Pseudomonas aeruginosa | crystal violet staining | – | 500 µg/mL, 24 h | relative to: untreated | residual biofilm | 38 ± 7%
N=C(N)c1ccc(OCCCCCOc2ccc(C(=N)N)cc2)cc1 | Pseudomonas aeruginosa | – | ATCC 27853 | concentration not given, with: rifampicin | – | MIC in combination | 100 µg/mL
O=C(NCc1ccccc1)C1COC2(CCCCC2)O1 (stereo not shown) | Pseudomonas aeruginosa | crystal violet staining | – | 500 µg/mL, 24 h | relative to: untreated | residual biofilm | 49 ± 5%
COc1cccc(C(=O)C#Cc2ccc(F)c(F)c2)c1 | Pseudomonas aeruginosa | RT-qPCR, item: phzC1 | biofilm cells | 10 µM, 24 h | relative to: untreated | mRNA level | 44%
N=C(N)c1ccc(OCc2ccc(Br)cc2COc2ccc(C(=N)N)cc2)cc1 | Pseudomonas aeruginosa | – | ATCC 27853 | concentration not given, with: rifampicin | – | MIC in combination | 6.25 µg/mL
C[C@@H](O)[C@H]1C(=O)N2C(C(=O)O)=C(S[C@@H]3CN[C@H](C(=O)N(C)C)C3)[C@H](C)[C@H]12 | Pseudomonas aeruginosa | checkerboard | carbapenem-resistant | concentration not given, with: anionic gold nanoparticle 8 µg/mL | relative to: MIC alone over combination | MIC fold reduction | 8 fold
C[C@@H](O)[C@H]1C(=O)N2C(C(=O)O)=C(SCCN=CN)C[C@H]12 | Pseudomonas aeruginosa | – | PAO1, mouse, lung | dose not given | – | lung bacterial load | 7.81 log CFU and 1.6 log CFU and 6.51 log CFU
COc1cc(C#CC(=O)c2ccccc2OC)ccc1O | Pseudomonas aeruginosa | static biofilm | PA14 | 10 µM, 24 h | relative to: DMSO | biofilm formation | 70%
O=C(N[C@@H](Cc1ccccc1)C(=O)O)C1COC2(CCCCC2)OC1 | Pseudomonas aeruginosa | crystal violet staining | – | 500 µg/mL, 24 h | relative to: untreated | residual biofilm | 16 ± 3%
COc1cc(C#CC(=O)CC(C)C)ccc1O | Pseudomonas aeruginosa | RT-qPCR, item: phzC1 | biofilm cells | 10 µM, 24 h | relative to: untreated | mRNA level | 63%
N=C(N)c1ccc(OCc2cc(Br)cc(COc3ccc(C(=N)N)cc3)c2)cc1 | Pseudomonas aeruginosa | – | ATCC 27853 | concentration not given, with: rifampicin | – | MIC in combination | 25 µg/mL
